Published values from different studies.
Protocols differ between the studies behind these lines. Numbers after ± are the reported error.
B1: dmaW (Aspergillus fumigatus, UniProt Q50EL0); chain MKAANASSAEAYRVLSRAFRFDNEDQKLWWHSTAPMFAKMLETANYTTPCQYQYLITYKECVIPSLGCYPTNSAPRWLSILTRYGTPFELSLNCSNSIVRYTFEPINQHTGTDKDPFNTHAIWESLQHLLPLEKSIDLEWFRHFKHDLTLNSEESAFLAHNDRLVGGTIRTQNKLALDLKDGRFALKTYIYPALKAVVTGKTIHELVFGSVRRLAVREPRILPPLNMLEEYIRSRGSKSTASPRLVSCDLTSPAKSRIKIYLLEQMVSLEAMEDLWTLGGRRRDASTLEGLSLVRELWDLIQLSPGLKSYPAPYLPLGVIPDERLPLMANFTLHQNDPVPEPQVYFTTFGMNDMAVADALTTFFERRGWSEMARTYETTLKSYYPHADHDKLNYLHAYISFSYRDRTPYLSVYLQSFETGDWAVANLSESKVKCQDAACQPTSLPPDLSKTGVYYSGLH
B2: enzyme E416A (Streptomyces platensis, UniProt A0A0A0V031); chain MQHTTIGDVLREHRRSHPGRTALVDGPVRLTWPELDDRVNRLAGSLAASGIGRGDRIMWLGQNSFRVYELIAAAGKLGAMVCVGYWRWAPPEMEFALRDFDPHLVVWQHQEIHETVARTREALGSDDTARWLRHDSAPQDPDGYEAFLAAGGLADPDLDIDPDSPVLVLYTAAMSGRQCGSLLSHTNLIAMATAAAWLGDIDHTTAFLNSGPMFHIGNHQFWGMPTLLMAGKNVIVRRVVAEEVRDLLVAEECTHAFLMPPTVAEIVRLNRDTGHDLSRLRATVAPHLWEGMATTDTSRFTRSGAAAGRGYGQTELSGFAVTAAYGGPAAGNAGRPGPGLTVRVLDTAGRECAVGEAGEICARGTVVHRGYWNRDEVNAHRFRSGWWHTTDLGRREPDGSLTFLGTTTRMLKSAAANIFPAEVENCIEQHPAVREAAVIGVPNTRWAQDVKAVVVLEPDAGVSEQEIIDHCRPRIASYKKPKSVAFAAALPRTVSGARDYDALDKEYGGGGYPGAATLGPGR
B3: enzyme A172S/A173G/A497K/C179K/M174T/Q178P (Streptomyces platensis, UniProt A0A0A0V031); chain MQHTTIGDVLREHRRSHPGRTALVDGPVRLTWPELDDRVNRLAGSLAASGIGRGDRIMWLGQNSFRVYELIAAAGKLGAMVCVGYWRWAPPEMEFALRDFDPHLVVWQHQEIHETVARTREALGSDDTARWLRHDSAPQDPDGYEAFLAAGGLADPDLDIDPDSPVLVLYTSGTSGRPKGSLLSHTNLIAMATAAAWLGDIDHTTAFLNSGPMFHIGNHQFWGMPTLLMAGKNVIVRRVVAEEVRDLLVAEECTHAFLMPPTVAEIVRLNRDTGHDLSRLRATVAPHLWEGMATTDTSRFTRSGAAAGRGYGQTELSGFAVTAAYGGPAAGNAGRPGPGLTVRVLDTAGRECAVGEAGEICARGTVVHRGYWNRDEVNAHRFRSGWWHTTDLGRREPDGSLTFLGTTTRMLKSAAENIFPAEVENCIEQHPAVREAAVIGVPNTRWAQDVKAVVVLEPDAGVSEQEIIDHCRPRIASYKKPKSVAFAAALPRTVSGKRDYDALDKEYGGGGYPGAATLGPGR
UniProt P0CAW2, sequence (whole entry, unmodified, looked up): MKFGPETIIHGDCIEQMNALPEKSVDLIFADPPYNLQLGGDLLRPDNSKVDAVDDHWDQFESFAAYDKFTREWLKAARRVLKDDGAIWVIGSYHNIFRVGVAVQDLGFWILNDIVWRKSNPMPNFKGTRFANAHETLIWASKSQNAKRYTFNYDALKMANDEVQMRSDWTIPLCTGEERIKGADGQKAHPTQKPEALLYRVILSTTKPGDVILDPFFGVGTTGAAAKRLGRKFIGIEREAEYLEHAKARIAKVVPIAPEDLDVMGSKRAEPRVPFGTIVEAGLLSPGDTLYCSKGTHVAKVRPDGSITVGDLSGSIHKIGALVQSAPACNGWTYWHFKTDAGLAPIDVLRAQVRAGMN
UniProt P21729, sequence (whole entry, looked up): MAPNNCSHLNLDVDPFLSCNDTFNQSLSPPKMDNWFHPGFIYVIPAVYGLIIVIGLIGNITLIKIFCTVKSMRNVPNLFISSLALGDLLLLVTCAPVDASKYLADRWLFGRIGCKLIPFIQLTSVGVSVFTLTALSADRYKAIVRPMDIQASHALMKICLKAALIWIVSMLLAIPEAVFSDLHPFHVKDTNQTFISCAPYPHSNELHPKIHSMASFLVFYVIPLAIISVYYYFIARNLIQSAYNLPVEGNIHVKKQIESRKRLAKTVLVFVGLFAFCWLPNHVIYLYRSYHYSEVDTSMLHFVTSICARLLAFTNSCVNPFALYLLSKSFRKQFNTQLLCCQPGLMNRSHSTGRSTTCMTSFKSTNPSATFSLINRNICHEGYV

| Molecule | target or system | test | system | setting | scale | measurement | result |
| --- | --- | --- | --- | --- | --- | --- | --- |
| B1 (dmaW) | CC/C(C)=C/COP(=O)(O)OP(=O)(O)O | steady-state kinetics |  | pH 7.5, 35 °C |  | kcat | 0.165 ± 0.00667 s⁻¹ |
| ATTTAAGATATCTTAAAT (dsDNA) | repressor C2 1-216 N46C (Salmonella phage P22, UniProt P69202) | filter binding | double-stranded DNA, one strand shown | NaCl 50 mM |  | Kd | 57.6 nM |
| CCCNC(=O)[C@H](CC(C)C)NC(=O)[C@H](Cc1c[nH]cn1)NC(=O)CNC(=O)[C@@H](NC(=O)[C@H](C)NC(=O)[C@H](Cc1c[nH]c2ccccc12)NC(=O)[C@H](CCC(N)=O)NC(=O)[C@@H](Cc1ccccc1)NC(=O)CCCCCNC(=O)CN1CCN(CC(=O)O)CCN(CC(=O)O)CCN(CC(=O)O)CC1)C(C)C [indium-111 labelled] | Gastrin-releasing peptide receptor (Mus musculus, UniProt P21729) |  | CF-1 mice, small intestine | intravenous, dose not given, 1 h, added: bombesin 100 µg (blocking) |  | tissue uptake | 0.69 ± 0.11 %ID/g |
| B2 (enzyme E416A) | C[C@@]12CCC[C@@](C)(C(=O)OP(=O)(O)OC[C@H]3O[C@@H](n4cnc5c(N)ncnc54)[C@H](O)[C@@H]3O)[C@H]1C[C@@H](O)[C@]13C[C@H]4C[C@H](O[C@@]4(C)C1)[C@@H]23 | steady-state kinetics |  | pH 7.8, 25 °C |  | kcat | 0.21 s⁻¹ |
| C[C@H]1COc2c(N3CCN(C)CC3)c(F)cc3c(=O)c(C(=O)N[C@@H](CCCNC(=N)N)C(=O)N[C@@H](Cc4ccc(-c5ccccc5)cc4)C(=O)N[C@@H](CCCNC(=N)N)C(=O)N[C@@H](Cc4ccc(-c5ccccc5)cc4)C(=O)N[C@@H](CCCNC(=N)N)C(N)=O)cn1c23 | human erythrocytes |  |  | 3.125 µM, 1 h, 37 °C | reference: Triton X-100 | hemolysis | 0% |
| C=Cc1c(C)c2cc3nc(c4c5[nH]c(cc6nc(cc1[nH]2)C(C)=C6CC)c(C)c5C(=O)C4)[C@@H](CCC(=O)NCC(=O)N1CCC[C@H]1C(=O)N[C@@H](CC(C)C)C(=O)NCC(=O)N[C@@H](Cc1ccccc1)C(=O)N[C@@H](CCCNC(=N)N)C(=O)N[C@H](C(=O)NCC(=O)N[C@@H](CCCCN)C(N)=O)C(C)C)[C@@H]3C | OA patient chondrocytes | flow cytometry |  | 1 µM, 1 h | reference: untreated | mean fluorescence intensity | 12 ± 2 fold |
| ATTTAAGATATCTTAAAT (dsDNA; 3-deaza-A at 9 and 10) | repressor C2 1-216 (Salmonella phage P22, UniProt P69202) | filter binding | double-stranded DNA, one strand shown |  |  | binding | no binding |
| N=C(N)NCCC[C@@H]1NC(=O)[C@H](CCCCNC(=O)CCOCCOCCOCCOCCNC(=O)CC[C@H](NC(=O)CCOCCOCCOCCOCCNC(=O)CC[C@H](NC(=O)CN2CCN(CC(=O)O)CCN(CC(=O)O)CCN(CC(=O)O)CC2)C(=O)NCCOCCOCCOCCOCCC(=O)N[C@@H](CCC(=O)NCCOCCOCCOCCOCCC(=O)NCCCC[C@@H]2NC(=O)[C@@H](Cc3ccccc3)NC(=O)[C@H](CC(=O)O)NC(=O)CNC(=O)[C@H](CCCNC(=N)N)NC2=O)C(=O)NCCOCCOCCOCCOCCC(=O)NCCCC[C@@H]2NC(=O)[C@@H](Cc3ccccc3)NC(=O)[C@H](CC(=O)O)NC(=O)CNC(=O)[C@H](CCCNC(=N)N)NC2=O)C(=O)NCCOCCOCCOCCOCCC(=O)NCCCC[C@@H]2NC(=O)[C@@H](Cc3ccccc3)NC(=O)[C@H](CC(=O)O)NC(=O)CNC(=O)[C@H](CCCNC(=N)N)NC2=O)NC(=O)[C@@H](Cc2ccccc2)NC(=O)[C@H](CC(=O)O)NC(=O)CNC1=O [indium-111 labelled] |  |  | athymic nude mice, female, U-87 MG glioma xenograft, tumour and blood | intravenous, 24 h | reference: tumour over blood | tumour to tissue ratio | 56.5 ± 10.8 |
| CCCC[C@H](NC(=O)CNC(=O)CNC(=O)c1ccc(NN)nc1)C(=O)N[C@H]1CC(=O)NCCCC[C@@H](C(N)=O)NC(=O)[C@H](Cc2c[nH]c3ccccc23)NC(=O)[C@H](CCCNC(=N)N)NC(=O)[C@@H](Cc2ccccc2)NC(=O)[C@H](Cc2c[nH]cn2)NC1=O [technetium-99m labelled] |  |  | C57 mouse, B16/F1 melanoma, stomach | 2 h, added: L-lysine 12 mg |  | uptake | 0.63 ± 0.44 %ID/g |
| N=C(N)NCCC[C@@H]1NC(=O)[C@H](CCCCNC(=O)CC[C@H](NC(=O)CCOCCOCCOCCOCCNC(=O)CN2CCN(CC(=O)O)CCN(CC(=O)O)CCN(CC(=O)O)CC2)C(=O)NCCCC[C@@H]2NC(=O)[C@@H](Cc3ccccc3)NC(=O)[C@H](CC(=O)O)NC(=O)CNC(=O)[C@H](CCCNC(=N)N)NC2=O)NC(=O)[C@@H](Cc2ccccc2)NC(=O)[C@H](CC(=O)O)NC(=O)CNC1=O [indium-111 labelled] |  |  | athymic nude mice, female, U-87 MG glioma xenograft, spleen | intravenous, 3 µCi, 24 h |  | tissue uptake | 1.47 ± 0.35 %ID/g |
| ATGATCAGTACGATGTTCACTGTACTCTGACTCGCCTGACATGACTGACGGACTTGCACT (ssDNA) | ccrMIM 1-358 (Caulobacter vibrioides, UniProt P0CAW2) | EMSA | single-stranded DNA | added: sinefungin 60 µM |  | Kd | 18.5 ± 5.7 nM |
| CCCC[C@H](NC(=O)CCCCCCCNC(=O)c1ccc(NN)nc1)C(=O)N[C@H]1CC(=O)NCCCC[C@@H](C(N)=O)NC(=O)[C@H](Cc2c[nH]c3ccccc23)NC(=O)[C@H](CCCNC(=N)N)NC(=O)[C@@H](Cc2ccccc2)NC(=O)[C@H](Cc2c[nH]cn2)NC1=O [technetium-99m labelled] |  |  | C57 mouse, B16/F1 melanoma, heart | intravenous, 4 h |  | uptake | 0.13 ± 0.09 %ID/g |
| N=C(N)NCCC[C@@H]1NC(=O)[C@H](CCCCNC(=O)CCOCCOCCOCCOCCNC(=O)CN2CCN(CC(=O)O)CCN(CC(=O)O)CCN(CC(=O)O)CC2)NC(=O)[C@@H](Cc2ccccc2)NC(=O)[C@H](CC(=O)O)NC(=O)CNC1=O [indium-111 labelled] |  |  | athymic nude mice, female, U-87 MG glioma xenograft, U-87 MG tumour | intravenous, 3 µCi, 72 h |  | tissue uptake | 0.74 ± 0.16 %ID/g |
| GATTACTAAAGCTCAAAAGAAAATTTTCTACGAGGTTTTAGAGCTGTGCTGTTTCGAATGGTTCCAAAAC (ssDNA) | csn2 full length assumed (Streptococcus agalactiae, UniProt E7S4M0) | EMSA | single-stranded DNA |  |  | binding | no binding |
| B3 | C[C@@]12CCC[C@@](C)(C(=O)OP(=O)(O)OC[C@H]3O[C@@H](n4cnc5c(N)ncnc54)[C@H](O)[C@@H]3O)[C@H]1C[C@@H](O)[C@]13C[C@H]4C[C@H](O[C@@]4(C)C1)[C@@H]23 | steady-state kinetics |  | pH 7.8, 25 °C |  | kcat/Km | 2e+07 M⁻¹ s⁻¹ |
| ATGATCAGTACGATGTTCACTGTACTCTGACTCGCCTGACATGACTGACGGACTTGCACT (dsDNA; hemimethylated N6-methyladenine) | ccrMIM 1-358 E280A (Caulobacter vibrioides, UniProt P0CAW2) | EMSA | double-stranded DNA, one strand shown | added: sinefungin 60 µM |  | binding | binds |

Some of these lines once more:
| Molecule | target or system | test | system | setting | scale | measurement | result |
| --- | --- | --- | --- | --- | --- | --- | --- |
| B2 (enzyme E416A) | C[C@@]12CCC[C@@](C)(C(=O)OP(=O)(O)OC[C@H]3O[C@@H](n4cnc5c(N)ncnc54)[C@H](O)[C@@H]3O)[C@H]1C[C@@H](O)[C@]13C[C@H]4C[C@H](O[C@@]4(C)C1)[C@@H]23 | steady-state kinetics |  | pH 7.8, 25 °C |  | kcat | 0.21 s⁻¹ |
| N=C(N)NCCC[C@@H]1NC(=O)[C@H](CCCCNC(=O)CCOCCOCCOCCOCCNC(=O)CC[C@H](NC(=O)CCOCCOCCOCCOCCNC(=O)CC[C@H](NC(=O)CN2CCN(CC(=O)O)CCN(CC(=O)O)CCN(CC(=O)O)CC2)C(=O)NCCOCCOCCOCCOCCC(=O)N[C@@H](CCC(=O)NCCOCCOCCOCCOCCC(=O)NCCCC[C@@H]2NC(=O)[C@@H](Cc3ccccc3)NC(=O)[C@H](CC(=O)O)NC(=O)CNC(=O)[C@H](CCCNC(=N)N)NC2=O)C(=O)NCCOCCOCCOCCOCCC(=O)NCCCC[C@@H]2NC(=O)[C@@H](Cc3ccccc3)NC(=O)[C@H](CC(=O)O)NC(=O)CNC(=O)[C@H](CCCNC(=N)N)NC2=O)C(=O)NCCOCCOCCOCCOCCC(=O)NCCCC[C@@H]2NC(=O)[C@@H](Cc3ccccc3)NC(=O)[C@H](CC(=O)O)NC(=O)CNC(=O)[C@H](CCCNC(=N)N)NC2=O)NC(=O)[C@@H](Cc2ccccc2)NC(=O)[C@H](CC(=O)O)NC(=O)CNC1=O [indium-111 labelled] |  |  | athymic nude mice, female, U-87 MG glioma xenograft, tumour and blood | intravenous, 24 h | reference: tumour over blood | tumour to tissue ratio | 56.5 ± 10.8 |
